Results gathered from unrelated publications.
Compare with care: the assays were run in different laboratories. “And” joins repeats or separate records; there may be more than shown. Numbers after ± are the reported error.
PPARG: Peroxisome proliferator-activated receptor gamma (PPARG, Homo sapiens, UniProt P37231)
UniProt P37231, sequence (whole entry, looked up): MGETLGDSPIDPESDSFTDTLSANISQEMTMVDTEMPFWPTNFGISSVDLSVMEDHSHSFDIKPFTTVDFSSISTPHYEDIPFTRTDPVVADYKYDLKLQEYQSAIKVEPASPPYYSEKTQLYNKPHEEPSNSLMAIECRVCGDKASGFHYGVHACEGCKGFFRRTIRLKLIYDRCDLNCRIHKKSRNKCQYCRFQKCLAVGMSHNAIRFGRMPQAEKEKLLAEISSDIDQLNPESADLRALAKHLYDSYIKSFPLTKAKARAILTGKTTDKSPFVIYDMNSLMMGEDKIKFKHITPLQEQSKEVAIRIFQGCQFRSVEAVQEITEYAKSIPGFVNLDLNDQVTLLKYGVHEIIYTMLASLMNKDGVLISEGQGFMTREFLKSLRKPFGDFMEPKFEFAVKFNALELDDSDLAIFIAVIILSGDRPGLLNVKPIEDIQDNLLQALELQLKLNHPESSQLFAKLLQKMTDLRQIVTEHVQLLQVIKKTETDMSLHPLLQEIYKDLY
TMEM97: Sigma intracellular receptor 2 (TMEM97, Homo sapiens, UniProt Q5BJF2)
UniProt Q5BJF2, sequence (whole entry, looked up): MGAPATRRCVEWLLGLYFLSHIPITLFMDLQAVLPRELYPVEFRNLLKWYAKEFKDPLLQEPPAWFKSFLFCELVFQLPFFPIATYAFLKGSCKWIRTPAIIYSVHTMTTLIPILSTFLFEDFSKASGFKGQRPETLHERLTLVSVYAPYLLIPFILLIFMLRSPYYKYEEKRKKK
PPM1D: Protein phosphatase 1D (PPM1D, Homo sapiens, UniProt O15297)
UniProt Q9UM07, sequence (whole entry, looked up): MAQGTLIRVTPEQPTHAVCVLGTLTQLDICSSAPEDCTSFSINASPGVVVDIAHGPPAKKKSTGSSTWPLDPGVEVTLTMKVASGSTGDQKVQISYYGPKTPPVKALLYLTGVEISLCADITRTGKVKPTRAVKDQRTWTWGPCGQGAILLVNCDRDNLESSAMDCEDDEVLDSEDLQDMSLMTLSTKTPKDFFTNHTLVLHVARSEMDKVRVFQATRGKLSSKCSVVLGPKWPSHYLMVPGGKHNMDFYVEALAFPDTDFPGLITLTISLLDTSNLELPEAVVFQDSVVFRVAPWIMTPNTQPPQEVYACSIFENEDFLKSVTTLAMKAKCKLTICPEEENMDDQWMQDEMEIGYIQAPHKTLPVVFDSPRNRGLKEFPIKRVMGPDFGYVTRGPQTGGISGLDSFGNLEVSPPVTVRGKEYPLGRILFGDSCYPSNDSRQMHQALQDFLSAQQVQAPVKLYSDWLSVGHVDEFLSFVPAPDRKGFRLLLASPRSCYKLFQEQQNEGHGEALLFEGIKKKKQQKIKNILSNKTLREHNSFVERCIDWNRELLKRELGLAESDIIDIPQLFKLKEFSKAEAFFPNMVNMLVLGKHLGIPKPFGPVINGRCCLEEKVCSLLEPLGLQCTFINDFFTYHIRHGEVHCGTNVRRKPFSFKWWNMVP
UniProt O15297, sequence (whole entry, looked up): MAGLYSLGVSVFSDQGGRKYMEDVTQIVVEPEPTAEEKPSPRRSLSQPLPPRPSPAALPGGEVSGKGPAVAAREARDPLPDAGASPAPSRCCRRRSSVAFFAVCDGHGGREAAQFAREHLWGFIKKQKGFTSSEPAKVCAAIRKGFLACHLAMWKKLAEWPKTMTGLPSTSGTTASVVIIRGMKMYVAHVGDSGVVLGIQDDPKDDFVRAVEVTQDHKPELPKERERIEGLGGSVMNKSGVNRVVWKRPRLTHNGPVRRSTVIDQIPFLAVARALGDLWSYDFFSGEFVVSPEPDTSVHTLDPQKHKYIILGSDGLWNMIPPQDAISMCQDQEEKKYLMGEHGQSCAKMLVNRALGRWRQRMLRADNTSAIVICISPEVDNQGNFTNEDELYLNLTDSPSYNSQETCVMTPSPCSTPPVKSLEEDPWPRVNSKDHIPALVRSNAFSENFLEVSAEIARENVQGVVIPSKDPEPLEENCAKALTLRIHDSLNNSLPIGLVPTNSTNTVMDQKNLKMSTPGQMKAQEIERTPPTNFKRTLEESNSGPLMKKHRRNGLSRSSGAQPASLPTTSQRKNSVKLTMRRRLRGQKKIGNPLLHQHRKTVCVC
UniProt A0A109QYD3, sequence (whole entry, unmodified, looked up): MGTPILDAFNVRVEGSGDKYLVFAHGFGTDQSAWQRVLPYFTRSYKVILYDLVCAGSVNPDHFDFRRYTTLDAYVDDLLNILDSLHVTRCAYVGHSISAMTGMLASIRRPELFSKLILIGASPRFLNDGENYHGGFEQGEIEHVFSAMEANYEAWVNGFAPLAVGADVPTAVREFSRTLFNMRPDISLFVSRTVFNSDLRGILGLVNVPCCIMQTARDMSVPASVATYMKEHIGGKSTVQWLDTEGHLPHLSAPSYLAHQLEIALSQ
UniProt P51531, sequence (whole entry, looked up): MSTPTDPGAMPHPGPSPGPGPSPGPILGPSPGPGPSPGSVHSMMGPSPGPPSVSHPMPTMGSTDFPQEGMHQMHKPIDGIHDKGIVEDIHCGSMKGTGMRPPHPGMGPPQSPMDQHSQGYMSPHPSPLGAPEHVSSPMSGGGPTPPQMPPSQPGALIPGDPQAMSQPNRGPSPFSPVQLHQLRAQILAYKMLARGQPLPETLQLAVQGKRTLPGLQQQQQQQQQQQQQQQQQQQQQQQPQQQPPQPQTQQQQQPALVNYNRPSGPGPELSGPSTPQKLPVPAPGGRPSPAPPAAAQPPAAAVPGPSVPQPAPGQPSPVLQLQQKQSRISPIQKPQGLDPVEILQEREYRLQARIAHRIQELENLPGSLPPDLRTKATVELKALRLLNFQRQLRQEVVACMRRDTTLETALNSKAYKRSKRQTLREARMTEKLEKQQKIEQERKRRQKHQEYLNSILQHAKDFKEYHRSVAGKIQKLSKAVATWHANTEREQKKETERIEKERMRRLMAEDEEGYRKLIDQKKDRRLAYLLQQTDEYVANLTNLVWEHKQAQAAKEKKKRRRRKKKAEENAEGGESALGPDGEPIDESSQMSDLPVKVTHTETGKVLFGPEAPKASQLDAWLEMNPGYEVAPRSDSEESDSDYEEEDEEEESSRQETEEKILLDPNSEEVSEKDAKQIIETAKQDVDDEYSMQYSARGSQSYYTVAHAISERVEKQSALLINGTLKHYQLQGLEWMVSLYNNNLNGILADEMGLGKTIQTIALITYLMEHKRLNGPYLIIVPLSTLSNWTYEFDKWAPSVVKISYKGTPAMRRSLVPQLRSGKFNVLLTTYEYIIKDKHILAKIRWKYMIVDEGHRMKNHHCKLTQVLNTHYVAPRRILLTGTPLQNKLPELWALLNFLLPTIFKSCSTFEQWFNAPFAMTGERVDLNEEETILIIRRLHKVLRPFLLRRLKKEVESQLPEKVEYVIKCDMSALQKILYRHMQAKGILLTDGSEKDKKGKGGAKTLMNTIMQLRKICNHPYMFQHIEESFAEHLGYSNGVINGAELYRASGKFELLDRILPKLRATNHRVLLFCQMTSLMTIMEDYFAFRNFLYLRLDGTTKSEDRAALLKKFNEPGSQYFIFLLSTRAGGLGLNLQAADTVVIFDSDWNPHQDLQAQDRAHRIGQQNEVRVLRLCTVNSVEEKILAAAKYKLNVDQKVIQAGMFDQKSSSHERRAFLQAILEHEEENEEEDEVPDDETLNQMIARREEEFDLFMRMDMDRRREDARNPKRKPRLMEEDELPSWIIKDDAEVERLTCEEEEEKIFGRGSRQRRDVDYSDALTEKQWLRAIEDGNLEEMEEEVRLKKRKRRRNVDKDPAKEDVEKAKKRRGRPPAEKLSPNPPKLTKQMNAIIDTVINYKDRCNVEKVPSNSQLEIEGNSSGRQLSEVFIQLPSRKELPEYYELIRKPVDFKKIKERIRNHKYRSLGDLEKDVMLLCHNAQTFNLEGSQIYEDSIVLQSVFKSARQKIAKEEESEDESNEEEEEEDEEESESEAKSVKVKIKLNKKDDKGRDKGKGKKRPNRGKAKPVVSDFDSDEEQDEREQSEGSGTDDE
UniProt P00742, sequence (whole entry, looked up): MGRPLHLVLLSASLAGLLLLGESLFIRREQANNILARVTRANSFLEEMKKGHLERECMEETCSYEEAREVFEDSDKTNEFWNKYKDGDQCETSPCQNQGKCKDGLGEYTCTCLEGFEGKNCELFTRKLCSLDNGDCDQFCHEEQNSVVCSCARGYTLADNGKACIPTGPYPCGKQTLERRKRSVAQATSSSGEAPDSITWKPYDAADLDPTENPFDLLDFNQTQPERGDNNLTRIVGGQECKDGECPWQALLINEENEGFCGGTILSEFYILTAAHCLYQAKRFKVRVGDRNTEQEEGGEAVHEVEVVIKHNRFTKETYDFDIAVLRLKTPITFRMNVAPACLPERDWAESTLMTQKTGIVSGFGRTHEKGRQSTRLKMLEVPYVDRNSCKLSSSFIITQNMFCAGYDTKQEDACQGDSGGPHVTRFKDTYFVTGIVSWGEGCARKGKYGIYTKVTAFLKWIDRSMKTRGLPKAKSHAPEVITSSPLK
UniProt Q2FIT4, sequence (whole entry, looked up): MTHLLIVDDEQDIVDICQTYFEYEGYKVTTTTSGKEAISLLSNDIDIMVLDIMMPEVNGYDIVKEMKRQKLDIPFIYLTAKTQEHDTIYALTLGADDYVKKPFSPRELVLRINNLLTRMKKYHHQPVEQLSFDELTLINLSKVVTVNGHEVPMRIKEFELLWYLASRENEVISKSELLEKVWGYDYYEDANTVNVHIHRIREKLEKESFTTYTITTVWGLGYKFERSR
UniProt P19256, sequence (whole entry, looked up): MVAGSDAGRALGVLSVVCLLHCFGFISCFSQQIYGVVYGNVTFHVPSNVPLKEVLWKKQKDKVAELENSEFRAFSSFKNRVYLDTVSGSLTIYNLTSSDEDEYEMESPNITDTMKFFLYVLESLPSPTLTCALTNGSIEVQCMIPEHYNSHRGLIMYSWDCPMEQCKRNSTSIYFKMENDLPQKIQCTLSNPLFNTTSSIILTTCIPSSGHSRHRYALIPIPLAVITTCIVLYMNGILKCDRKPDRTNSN

SMILES	target	assay	system	conditions	Kd
C[C@@H]1NC(=O)[C@@H]2CSSC[C@H](NC(=O)[C@H](CC(=O)O)NC(=O)[C@H](CC(=O)O)NC(=O)CNC(=O)[C@H](CC(=O)O)NC(=O)[C@H](Cc3ccc(O)cc3)NC1=O)C(=O)N[C@@H](CCCCN)C(=O)N[C@@H](CO)C(=O)N[C@@H](C)C(=O)NCCc1cccc3c1Oc1c(cccc1-3)CCC(=O)N[C@@H](CO)C(=O)N2	Lymphocyte function-associated antigen 3 (CD58, Homo sapiens, UniProt P19256)	binding to CD58, SPR, immobilized CD58	–	–	46 nM
Cc1c(Cc2cccc(OC(C)(C)C(=O)O)c2)c2ccc(C(=O)NCc3cccc(C(C)(C)C)c3)cc2n1CC1CCC1	PPARG	ligand displacement, TR-FRET	–	–	0.075 nM
CC(C)[C@H]1C(=O)N[C@H](CO)Cc2ccc(OCc3ccccc3)cc2N1C	protein kinase C C1 domain	binding, microscale thermophoresis and BLI	–	–	230 nM
Cc1c(Cc2cccc(OC(C)(C)C(=O)O)c2)c2ccc(C(=O)N[C@@H](C)c3ccc(C(C)(C)C)cc3)cc2n1CC1CCC1	PPARG	ligand displacement, TR-FRET	–	–	1.14 nM
CC(C)C[C@H](NC(=O)[C@H](Cc1ccc(O)cc1)NC(=O)[C@H](CC(N)=O)NC(=O)[C@H](CO)NC(=O)CNC(=O)[C@H](Cc1ccc(O)cc1)NC(=O)[C@H](CC(=O)O)NC(=O)CNC(=O)[C@H](Cc1ccc(O)cc1)NC(=O)[C@H](Cc1ccccc1)NC(=O)[C@@H]1CCCN1C(=O)[C@H](Cc1ccccc1)NC(=O)[C@H](CCC(=O)O)NC(=O)[C@H](CCCNC(=N)N)NC(=O)[C@H](Cc1c[nH]cn1)NC(=O)[C@H](CO)NC(=O)[C@H](Cc1c[nH]cn1)NC(=O)[C@H](Cc1c[nH]cn1)NC(=O)[C@H](CCCCN)NC(=O)[C@H](CCC(=O)O)NC(=O)[C@@H](N)Cc1c[nH]cn1)C(=O)N[C@@H](Cc1ccc(O)cc1)C(=O)N[C@@H](CC(=O)O)C(=O)N[C@@H](CC(N)=O)C(=O)O	TMEM97	SPR	–	pH 7.4, 25 °C	> 50000 nM
Cc1c[nH]c2nccc(-c3ccc(C(=O)N[C@@H]4c5c(F)cc(C(F)F)cc5C[C@@H]4O)cn3)c12	Rho-associated protein kinase 2 (ROCK2, Homo sapiens, UniProt O75116)	binding, competition with immobilised ligand	–	–	4.8 nM
Cn1ncc2cc(-c3cncc(Cl)c3N3CCC4(CCNC4=O)CC3)ccc21	Glycogen synthase kinase-3 alpha (GSK3A, Homo sapiens, UniProt P49840)	cell-free assay	–	lysate	1780 nM
NCCNC(=O)[C@H](CC1CCCCC1)NC(=O)c1ccc(CNc2ccccn2)s1	PPM1D	binding	–	–	280 nM
Cc1c(Cc2cccc(OC(C)(C)C(=O)O)c2)c2ccc(C(=O)N[C@@H](C)c3ccc(F)c(C(C)(C)C)c3)cc2n1CC(C)C	PPARG	ligand displacement, TR-FRET	–	–	0.478 nM
C=CC(=O)N1CC2(CCN(c3nc(OC4CCN(CCCOC)CC4)nc4c(OCC(F)(F)F)c(-c5c(C)ccc6[nH]ncc56)c(C5CC5)cc34)CC2)C1	GTPase KRas, GDP-bound (KRAS, Homo sapiens, UniProt P01116, G12D)	SPR	–	–	22100 ± 360 nM
N=C(N)c1ccc(CNC(=O)CNC(=O)[C@@H](COCc2ccccc2)NS(=O)(=O)Cc2ccccc2)cc1	Coagulation factor X (F10, Homo sapiens, UniProt P00742)	binding, BLI	–	–	137 nM
CC1=C[C@H](O/C=C2/C(=O)O[C@@H]3c4ccccc4C[C@H]23)OC1=O (racemic)	RMS3 (Lathyrus oleraceus, UniProt A0A109QYD3, S96A)	binding, fluorescence	–	–	503000 nM
CCCCCCCO[C@H]1O[C@H](CO)[C@@H](O)[C@H](O)[C@@H]1O	Type 1 fimbrin D-mannose specific adhesin, lectin domain (fimH, Escherichia coli K-12, UniProt P08191)	binding, isothermal titration calorimetry	–	25 °C, global fit, two runs	28.9 nM
O=C(Nc1ccc(C(F)F)cc1)[C@H](CC1CCCCC1)Nc1nn2c(=O)ccnc2s1	PPM1D	binding	–	–	7.7 nM
Cc1c(Cc2ccc(Cl)c(O[C@@H](C)C(=O)O)c2)c2ccc(C(=O)N[C@@H](C)c3ccc(C(C)(C)C)cc3)cc2n1CC1CCC1	PPARG	ligand displacement, TR-FRET	–	–	0.92 nM
N=C(N)NCCC[C@H](NC(=O)[C@H](Cc1ccc(O)cc1)NC(=O)CNC(=O)[C@H](Cc1c[nH]cn1)NC(=O)[C@H](Cc1c[nH]cn1)NC(=O)[C@H](CCCNC(=N)N)NC(=O)[C@H](CCCCN)NC(=O)[C@H](CCC(=O)O)NC(=O)[C@@H](N)Cc1c[nH]cn1)C(=O)N[C@@H](CCCNC(=N)N)C(=O)N[C@@H](CCCCN)C(=O)N[C@@H](Cc1ccccc1)C(=O)N[C@@H](Cc1c[nH]cn1)C(=O)N[C@@H](CCC(=O)O)C(=O)N[C@@H](CCCCN)C(=O)N[C@@H](Cc1c[nH]cn1)C(=O)N[C@@H](Cc1c[nH]cn1)C(=O)N[C@@H](CO)C(=O)N[C@@H](Cc1c[nH]cn1)C(=O)N[C@@H](CCCNC(=N)N)C(=O)N[C@@H](CCC(=O)O)C(=O)N[C@@H](Cc1ccccc1)C(=O)N1CCC[C@H]1C(=O)N[C@@H](Cc1ccccc1)C(=O)O	TMEM97	SPR	–	pH 7.4, 25 °C	1790 ± 2280 nM
COc1ccc(-c2oc3c(CC=C(C)C)c(O)cc(O)c3c(=O)c2O[C@@H]2O[C@@H](C)[C@H](O)[C@@H](O)[C@H]2O)cc1	Response regulator SaeR (saeR, Staphylococcus aureus, UniProt Q2FIT4)	binding	–	–	197 nM
Cc1cccc2c1N(C(=O)n1ccnn1)CC2	KAI2 (Arabidopsis thaliana, UniProt Q9SZU7)	ITC	–	mean of replicates	27700 nM
N=C(N)NCCC[C@H](NC(=O)[C@H](Cc1ccc(O)cc1)NC(=O)CNC(=O)[C@H](Cc1c[nH]cn1)NC(=O)[C@H](Cc1c[nH]cn1)NC(=O)[C@H](CCCNC(=N)N)NC(=O)[C@H](CCCCN)NC(=O)[C@H](CCC(=O)O)NC(=O)[C@@H](N)Cc1c[nH]cn1)C(=O)N[C@@H](CCCNC(=N)N)C(=O)N[C@@H](CCCCN)C(=O)N[C@@H](Cc1ccccc1)C(=O)N[C@@H](Cc1c[nH]cn1)C(=O)N[C@@H](CCC(=O)O)C(=O)N[C@@H](CCCCN)C(=O)N[C@@H](Cc1c[nH]cn1)C(=O)N[C@@H](Cc1c[nH]cn1)C(=O)O	TMEM97	SPR	–	pH 7.4, 25 °C	2530 ± 1110 nM
COc1cc(C(=O)N2CC[C@@H](O)[C@@H](N)C2)cc2nc(-c3cc4cccnc4n3CC3CC3)n(C)c12	Protein-arginine deiminase type-4 (PADI4, Homo sapiens, UniProt Q9UM07)	surface plasmon resonance	–	–	457 nM and 473 nM and 495 nM and 451 nM
Cc1c(Cc2ccc(Cl)c(O[C@@H](C)C(=O)O)c2)c2ccc(C(=O)N[C@@H](C)c3ccc(C(C)(C)C)cc3)cc2n1C	PPARG	ligand displacement, TR-FRET	–	–	0.259 nM
COc1ccc(-c2nc(CC(=O)NC(c3nc4ccccc4[nH]3)C(C)C)cs2)cc1OC (centres unmarked)	CD27 antigen (CD27, Homo sapiens, UniProt P26842)	microscale thermophoresis	–	–	360 nM
Nc1nnc(-c2ccccc2O)cc1N1CC2CCC(C1)N2c1ccnc(C#CCCN2CCCCCC2)c1	SWI/SNF-related matrix-associated actin-dependent regulator of chromatin subfamily A member 2 (SMARCA2, Homo sapiens, UniProt P51531)	binding, NanoBRET tracer displacement	permeabilized HEK293	–	29 ± 6.7 nM
Cc1c(Cc2cc(Cl)cc(OC(C)C(=O)O)c2)c2ccc(C(=O)NC(C)c3ccc(C(C)(C)C)cc3)cc2n1CC1CC1 (centres unmarked)	PPARG	ligand displacement, TR-FRET	–	–	9.44 nM
N=C(N)NCCC[C@H](NC(=O)[C@H](Cc1c[nH]cn1)NC(=O)[C@@H](N)CO)C(=O)N[C@@H](CCC(=O)O)C(=O)N[C@@H](Cc1ccccc1)C(=O)N1CCC[C@H]1C(=O)N[C@@H](Cc1ccccc1)C(=O)N[C@@H](Cc1ccc(O)cc1)C(=O)NCC(=O)N[C@@H](CC(=O)O)C(=O)N[C@@H](Cc1ccc(O)cc1)C(=O)NCC(=O)N[C@@H](CO)C(=O)O	TMEM97	SPR	–	pH 7.4, 25 °C	> 50000 nM
Cc1c(Cc2ccc(Cl)c(OC(C)C(=O)O)c2)c2ccc(C(=O)NC(C)c3ccc(C(C)(C)C)cc3)cc2n1CC1CC1 (centres unmarked)	PPARG	ligand displacement, TR-FRET	–	–	0.636 nM
CCC(C)n1c(C(=O)Nc2cnc(C(=O)NC)n(CC(C)C)c2=O)ncc(NC(=O)c2ncc(NC(=O)c3ccccc3)c(=O)n2Cc2ccc(OC)cc2)c1=O (centres unmarked)	Heat shock protein HSP 90-alpha, C-terminal domain (HSP90AA1, Homo sapiens, UniProt P07900)	binding, microscale thermophoresis, refers to: C-terminal domain	–	added: labelled CTD 50 nM	3400 ± 1000 nM
CC1=C(C)C(Oc2c(F)cc3c(C)cc(=O)oc3c2F)OC1=O (racemic)	RMS3 (Lathyrus oleraceus, UniProt A0A109QYD3, S96C)	binding, fluorescence	–	–	126000 nM
Cc1c(Cc2cccc(OC(C)(C)C(=O)O)c2)c2ccc(C(=O)N[C@@H](C)c3cccc(C(C)(C)C)c3)cc2n1CC1CCC1	PPARG	ligand displacement, TR-FRET	–	–	2.37 nM

Excerpt of the above:
SMILES	target	assay	system	conditions	Kd
Cn1ncc2cc(-c3cncc(Cl)c3N3CCC4(CCNC4=O)CC3)ccc21	Glycogen synthase kinase-3 alpha (GSK3A, Homo sapiens, UniProt P49840)	cell-free assay	–	lysate	1780 nM
Cc1c(Cc2ccc(Cl)c(O[C@@H](C)C(=O)O)c2)c2ccc(C(=O)N[C@@H](C)c3ccc(C(C)(C)C)cc3)cc2n1C	PPARG	ligand displacement, TR-FRET	–	–	0.259 nM
Cc1c[nH]c2nccc(-c3ccc(C(=O)N[C@@H]4c5c(F)cc(C(F)F)cc5C[C@@H]4O)cn3)c12	Rho-associated protein kinase 2 (ROCK2, Homo sapiens, UniProt O75116)	binding, competition with immobilised ligand	–	–	4.8 nM
